Experimental data gathered from unrelated publications.
A part holds a random share of what one study measured.

Set 1 — technique: DNA-protein interaction ELISA; molecule type: double-stranded DNA, one strand shown; medium: in vitro, bacterial lysate; tested at: not given; notes: whole dsDNA probe, crude lysate protein; reference: highest signal in screen; direction: higher = stronger binding
Target: Probable WRKY transcription factor 33, C-terminal DNA-binding domain (WRKY33, Arabidopsis thaliana, UniProt Q8S8P5, residues 346-449)
Construct (chain): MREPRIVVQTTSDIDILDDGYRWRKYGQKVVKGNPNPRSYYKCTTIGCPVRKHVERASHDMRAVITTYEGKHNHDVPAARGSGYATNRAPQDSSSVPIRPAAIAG
| Strand | relative absorbance |
| --- | --- |
| AAAAAATCCTTTTCTCTTTCTGTTTCAAAA | 27.2 % of maximum |
| AAAAAATCTATTCCATTTCGCCTTCTAAAA | 57 % of maximum |
| AAAAAAGATTGACTCGTCTTACTCGAAAAA | 99.7 % of maximum |

Set 2 — technique: protein-binding microarray; molecule type: double-stranded DNA, one strand shown; medium: in vitro; tested at: 2540 nM top; notes: 60-bp whole probe; added: salmon DNA 0.4 mg/ml; reference: random background probes; direction: higher = stronger binding
Target: Interferon regulatory factor 3, full length, phosphomimetic (IRF3, Homo sapiens, UniProt Q14653, residues 1-427, S386D/S396D/S398D/S402D/T404D/S405D)
Construct (chain): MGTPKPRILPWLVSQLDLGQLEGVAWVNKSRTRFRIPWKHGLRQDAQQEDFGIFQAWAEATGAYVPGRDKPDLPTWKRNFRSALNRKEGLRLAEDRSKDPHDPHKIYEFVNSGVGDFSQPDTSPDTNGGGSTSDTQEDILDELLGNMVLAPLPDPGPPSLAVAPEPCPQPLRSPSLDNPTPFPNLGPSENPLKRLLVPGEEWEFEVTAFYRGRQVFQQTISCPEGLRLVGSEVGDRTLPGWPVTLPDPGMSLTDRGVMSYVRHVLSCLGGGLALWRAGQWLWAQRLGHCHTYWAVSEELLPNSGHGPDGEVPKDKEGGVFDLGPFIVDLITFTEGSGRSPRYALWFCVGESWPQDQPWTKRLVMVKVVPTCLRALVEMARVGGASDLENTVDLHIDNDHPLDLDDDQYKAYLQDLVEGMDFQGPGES
| Strand | fitted relative affinity |
| --- | --- |
| GCCTAGCACTTAGAACTGAGGTTTCGATTAGTGCTAGTCTTGATTCGCTTGACGCTGCTG | 2.23 z-score |
| GCCTAGCACTCAGGTTTCCAATCAGCACTGTGCTAGGTCTTGATTCGCTTGACGCTGCTG | 5.91 z-score |
| GCCTAGCACGACGGACGGGGGACTGGGGACGTGCTAGTCTTGATTCGCTTGACGCTGCTG | -0.287 z-score |
| GCCTAGCACTTAGGACTGGGGTATCGGTCAGTGCTAGTCTTGATTCGCTTGACGCTGCTG | -0.506 z-score |

Set 3 — technique: competition protein-binding microarray; molecule type: double-stranded DNA, one strand shown; medium: in vitro; tested at: 2 µM; added: Cbf1 competitor, 0.05 µM; direction: higher = stronger binding
Target: Phosphate system positive regulatory protein PHO4, full length, GST-tagged (PHO4, Saccharomyces cerevisiae, UniProt P07270, residues 1-312)
Notes: whole 60-bp probe, lowest competitor level
Construct (chain): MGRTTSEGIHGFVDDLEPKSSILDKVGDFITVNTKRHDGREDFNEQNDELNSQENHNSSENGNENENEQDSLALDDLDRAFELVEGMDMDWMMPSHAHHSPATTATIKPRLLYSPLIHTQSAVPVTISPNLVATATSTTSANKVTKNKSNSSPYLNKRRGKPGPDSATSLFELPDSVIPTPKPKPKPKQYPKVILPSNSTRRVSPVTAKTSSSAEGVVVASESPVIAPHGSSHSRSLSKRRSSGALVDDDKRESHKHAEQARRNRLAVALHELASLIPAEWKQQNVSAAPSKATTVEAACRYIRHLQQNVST
| Strand | fluorescence intensity [a.u.] |
| --- | --- |
| GAGATTTAGCCTTTGACCGTGCCGATAGTTGTTTTCGTCTTGATTCGCTTGACGCTGCTG | 6480 |
| GATAGTGCTGTCTGGGGCGTGCGATATGCAAAGCTTGTCTTGATTCGCTTGACGCTGCTG | 10200 |
| GAATATAGAGGTACGCTCGTGTCCAAGGACAACTACGTCTTGATTCGCTTGACGCTGCTG | 8750 |
| CGTCCTAGTGATTGCTACGTGGGTGCCATGAGGAAGGTCTTGATTCGCTTGACGCTGCTG | 9590 |

Other studies, line by line
| Molecule | target | assay | test system | setting | how to read | measurement | value |
| --- | --- | --- | --- | --- | --- | --- | --- |
| PhoQ, residues 284 288 289 292 302 303 TNSAEL | PhoP, residues 12 14 15 18 19 GQAIL (Escherichia coli, UniProt P23836) | Sort-seq, refers to: YFP reporter | E. coli | PhoQ-PhoP variant library, added: 10 µM Mg2+ | reference: high Mg2+ state, higher = stronger signaling | fold induction | 9.01 |

Some of these lines once more (set 3):
| Strand | fluorescence intensity [a.u.] |
| --- | --- |
| GAGATTTAGCCTTTGACCGTGCCGATAGTTGTTTTCGTCTTGATTCGCTTGACGCTGCTG | 6480 |
